Measured values gathered from unrelated publications.
Parts stem from different laboratories: compare values within a part only.
Chain of UniProt P45985 (whole entry, looked up): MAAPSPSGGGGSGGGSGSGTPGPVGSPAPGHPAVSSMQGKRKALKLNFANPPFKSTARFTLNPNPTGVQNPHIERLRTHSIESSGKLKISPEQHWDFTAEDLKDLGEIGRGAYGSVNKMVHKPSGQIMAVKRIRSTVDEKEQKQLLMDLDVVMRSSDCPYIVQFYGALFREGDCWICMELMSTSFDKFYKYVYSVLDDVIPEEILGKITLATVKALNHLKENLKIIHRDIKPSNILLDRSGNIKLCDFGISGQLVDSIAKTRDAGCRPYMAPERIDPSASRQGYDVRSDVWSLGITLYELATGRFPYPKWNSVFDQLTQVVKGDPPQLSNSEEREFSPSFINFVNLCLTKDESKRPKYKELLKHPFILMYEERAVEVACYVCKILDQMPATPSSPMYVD
Chain of UniProt P29322 (whole entry, looked up): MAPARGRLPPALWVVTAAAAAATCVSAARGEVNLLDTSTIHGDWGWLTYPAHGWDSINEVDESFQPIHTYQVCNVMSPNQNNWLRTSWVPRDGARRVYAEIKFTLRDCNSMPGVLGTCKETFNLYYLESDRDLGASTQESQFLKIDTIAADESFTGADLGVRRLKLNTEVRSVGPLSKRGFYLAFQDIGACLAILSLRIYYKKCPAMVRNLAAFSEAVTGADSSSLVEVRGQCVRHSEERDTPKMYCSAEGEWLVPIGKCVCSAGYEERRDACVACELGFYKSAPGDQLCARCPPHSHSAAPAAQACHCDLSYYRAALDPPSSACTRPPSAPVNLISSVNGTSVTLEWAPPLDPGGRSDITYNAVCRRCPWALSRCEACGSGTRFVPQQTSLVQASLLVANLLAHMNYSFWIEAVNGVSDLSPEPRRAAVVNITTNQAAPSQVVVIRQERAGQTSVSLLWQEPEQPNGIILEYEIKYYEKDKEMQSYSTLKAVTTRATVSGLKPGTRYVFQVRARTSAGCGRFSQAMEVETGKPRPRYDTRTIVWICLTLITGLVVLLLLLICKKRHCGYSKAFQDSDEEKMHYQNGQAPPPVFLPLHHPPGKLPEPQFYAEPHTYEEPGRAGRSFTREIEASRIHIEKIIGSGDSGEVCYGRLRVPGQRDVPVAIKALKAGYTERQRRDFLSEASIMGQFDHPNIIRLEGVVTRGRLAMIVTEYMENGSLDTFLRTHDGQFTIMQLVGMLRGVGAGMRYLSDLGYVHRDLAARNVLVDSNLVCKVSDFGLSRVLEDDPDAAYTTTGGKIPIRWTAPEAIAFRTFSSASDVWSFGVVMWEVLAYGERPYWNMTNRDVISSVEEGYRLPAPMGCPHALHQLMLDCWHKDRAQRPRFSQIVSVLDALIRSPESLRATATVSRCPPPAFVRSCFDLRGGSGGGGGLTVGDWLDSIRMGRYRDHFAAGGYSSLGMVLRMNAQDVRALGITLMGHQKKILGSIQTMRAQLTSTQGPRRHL
Chain of UniProt Q00537 (whole entry, looked up): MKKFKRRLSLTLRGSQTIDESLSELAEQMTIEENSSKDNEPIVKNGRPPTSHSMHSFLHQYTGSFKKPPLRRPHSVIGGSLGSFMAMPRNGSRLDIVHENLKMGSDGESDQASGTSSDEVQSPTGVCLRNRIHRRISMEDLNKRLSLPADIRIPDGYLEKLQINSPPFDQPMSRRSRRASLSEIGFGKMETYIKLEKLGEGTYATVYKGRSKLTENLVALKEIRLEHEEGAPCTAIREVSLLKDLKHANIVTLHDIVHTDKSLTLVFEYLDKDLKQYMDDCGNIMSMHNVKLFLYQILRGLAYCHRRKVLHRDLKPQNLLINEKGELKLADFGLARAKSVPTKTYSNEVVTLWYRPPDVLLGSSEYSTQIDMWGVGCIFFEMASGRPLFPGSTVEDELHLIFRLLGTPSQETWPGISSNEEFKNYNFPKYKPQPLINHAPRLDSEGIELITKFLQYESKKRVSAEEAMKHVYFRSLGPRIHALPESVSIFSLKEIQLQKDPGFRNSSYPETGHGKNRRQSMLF
Chain of UniProt Q14004 (whole entry, looked up): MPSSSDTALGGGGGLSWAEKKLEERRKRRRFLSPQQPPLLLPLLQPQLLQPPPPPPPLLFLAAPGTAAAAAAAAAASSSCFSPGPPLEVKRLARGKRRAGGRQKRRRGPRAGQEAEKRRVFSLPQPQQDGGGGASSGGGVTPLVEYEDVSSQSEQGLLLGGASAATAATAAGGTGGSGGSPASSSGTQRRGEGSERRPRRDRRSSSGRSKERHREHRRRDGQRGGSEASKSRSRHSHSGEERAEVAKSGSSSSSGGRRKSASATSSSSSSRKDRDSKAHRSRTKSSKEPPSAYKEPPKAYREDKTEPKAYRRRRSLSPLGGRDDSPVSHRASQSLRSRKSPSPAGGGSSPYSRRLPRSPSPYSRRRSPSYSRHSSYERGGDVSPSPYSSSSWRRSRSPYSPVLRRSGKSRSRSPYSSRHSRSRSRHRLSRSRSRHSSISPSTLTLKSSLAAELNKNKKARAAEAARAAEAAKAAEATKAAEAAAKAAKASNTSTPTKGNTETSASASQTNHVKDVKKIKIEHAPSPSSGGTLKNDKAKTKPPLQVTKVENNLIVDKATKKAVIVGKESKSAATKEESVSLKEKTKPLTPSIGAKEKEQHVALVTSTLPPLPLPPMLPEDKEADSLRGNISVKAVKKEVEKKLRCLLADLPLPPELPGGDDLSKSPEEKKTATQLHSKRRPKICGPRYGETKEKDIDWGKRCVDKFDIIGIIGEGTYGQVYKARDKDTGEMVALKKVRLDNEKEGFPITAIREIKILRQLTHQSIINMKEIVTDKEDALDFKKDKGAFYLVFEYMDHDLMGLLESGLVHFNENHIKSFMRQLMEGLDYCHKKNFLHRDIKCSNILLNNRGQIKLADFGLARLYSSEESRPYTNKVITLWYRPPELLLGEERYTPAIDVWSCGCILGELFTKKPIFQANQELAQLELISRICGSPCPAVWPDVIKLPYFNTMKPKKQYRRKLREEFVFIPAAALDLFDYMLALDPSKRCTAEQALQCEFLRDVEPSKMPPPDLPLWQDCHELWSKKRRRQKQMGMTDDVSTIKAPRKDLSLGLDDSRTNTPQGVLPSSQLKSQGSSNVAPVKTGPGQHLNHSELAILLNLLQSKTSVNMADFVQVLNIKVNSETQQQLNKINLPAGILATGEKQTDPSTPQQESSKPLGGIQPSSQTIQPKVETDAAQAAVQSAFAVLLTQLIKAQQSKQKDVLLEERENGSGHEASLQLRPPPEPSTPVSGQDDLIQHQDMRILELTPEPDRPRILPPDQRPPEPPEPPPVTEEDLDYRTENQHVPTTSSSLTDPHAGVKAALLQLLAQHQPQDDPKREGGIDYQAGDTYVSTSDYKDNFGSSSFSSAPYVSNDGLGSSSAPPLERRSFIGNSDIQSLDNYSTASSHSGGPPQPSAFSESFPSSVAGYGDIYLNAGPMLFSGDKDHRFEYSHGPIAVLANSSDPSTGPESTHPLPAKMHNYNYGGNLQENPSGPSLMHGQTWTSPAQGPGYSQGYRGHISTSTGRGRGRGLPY

Block 1 — SMILES: C=CCc1ccc(O)c(-c2ccc(O)c(CC=C)c2)c1; observed: chloride current
ANO1 del476-501/F628A: Anoctamin-1 (ANO1, Homo sapiens, UniProt Q5XXA6, del476-501/F628A)
Chain of UniProt Q5XXA6 (whole entry, unmodified, looked up): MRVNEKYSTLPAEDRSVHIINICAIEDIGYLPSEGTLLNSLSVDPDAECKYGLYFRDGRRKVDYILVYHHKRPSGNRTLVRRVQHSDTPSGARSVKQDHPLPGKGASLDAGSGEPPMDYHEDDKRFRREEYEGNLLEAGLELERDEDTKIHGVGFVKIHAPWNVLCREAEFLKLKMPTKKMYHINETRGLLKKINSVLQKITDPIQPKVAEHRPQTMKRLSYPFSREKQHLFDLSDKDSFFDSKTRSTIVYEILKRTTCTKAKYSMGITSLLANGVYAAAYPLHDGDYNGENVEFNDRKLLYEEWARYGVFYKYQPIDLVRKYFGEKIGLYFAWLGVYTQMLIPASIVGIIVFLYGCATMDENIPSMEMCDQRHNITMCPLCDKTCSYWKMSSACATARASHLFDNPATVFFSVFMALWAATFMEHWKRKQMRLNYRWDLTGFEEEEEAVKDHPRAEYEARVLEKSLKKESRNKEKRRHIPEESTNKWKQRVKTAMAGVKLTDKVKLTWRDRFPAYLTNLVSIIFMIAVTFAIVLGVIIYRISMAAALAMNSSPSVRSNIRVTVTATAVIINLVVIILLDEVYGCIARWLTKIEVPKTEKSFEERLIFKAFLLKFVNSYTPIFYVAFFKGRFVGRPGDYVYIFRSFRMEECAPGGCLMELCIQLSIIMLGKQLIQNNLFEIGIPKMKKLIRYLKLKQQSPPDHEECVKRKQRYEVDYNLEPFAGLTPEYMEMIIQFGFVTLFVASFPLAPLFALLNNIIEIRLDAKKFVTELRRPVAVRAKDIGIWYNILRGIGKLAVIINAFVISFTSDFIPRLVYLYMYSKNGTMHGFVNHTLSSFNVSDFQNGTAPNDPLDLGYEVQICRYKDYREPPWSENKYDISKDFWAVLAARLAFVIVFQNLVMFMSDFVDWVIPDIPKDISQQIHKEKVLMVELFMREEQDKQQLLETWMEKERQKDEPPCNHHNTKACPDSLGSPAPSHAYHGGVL
| target | test | conditions | normalized current |
| --- | --- | --- | --- |
| Anoctamin-1 (ANO1, Homo sapiens, UniProt Q5XXA6, del476-501/E659A) | inside-out patch clamp | 10 µM, membrane voltage 0 mV | -0.000855 |
| Anoctamin-1 (ANO1, Homo sapiens, UniProt Q5XXA6, del476-501) | whole-cell voltage clamp | 10 µM, wild type, I-V at 0 mV, added: 4 µM Ca2+ | -0.00066 |
| ANO1 del476-501/F628A | whole-cell voltage clamp | 3 µM, concentration-response at 100 mV, added: 4 µM Ca2+ | 0.853 |
| ANO1 del476-501/F628A | inhibitor, whole-cell voltage clamp | 1 µM, F602A mutant | 0.966 |
| Anoctamin-1 (ANO1, Homo sapiens, UniProt Q5XXA6, del476-501/E659A/K629A) | inside-out patch clamp | 10 µM, membrane voltage 20 mV | 0.167 |
| Anoctamin-1 (ANO1, Homo sapiens, UniProt Q5XXA6, del476-501/K629A) | inside-out patch clamp | 10 µM, membrane voltage 60 mV | 0.354 |

Block 2 — organism: Sarcocystis neurona; observed: parasite growth; concentration: 10 µM; time: 96 h; setting: first screen
| SMILES | inhibition |
| --- | --- |
| CN(C)[C@@H]1C(O)=C(C(N)=O)C(=O)[C@@]2(O)C(O)=C3C(=O)c4c(O)cccc4[C@@](C)(O)[C@H]3C[C@@H]12 | 29.4% |
| OCc1cccnc1 | -5.2% |
| C#C[C@]1(O)CC[C@H]2[C@@H]3CCC4=CC(=O)CC[C@@H]4[C@H]3CC[C@@]21C | -14.3% |
| O=S(=O)(O)CCS | -7.1% |
| CN1CC(=O)N2[C@H](c3ccc4c(c3)OCO4)c3[nH]c4ccccc4c3C[C@@H]2C1=O | 33.5% |
| CN(C)CCOC(C)(c1ccccc1)c1ccccn1 (stereo not drawn) | -8% |
| CC[C@H]1OC(=O)[C@H](C)C(=O)[C@H](C)[C@@H](O[C@@H]2O[C@H](C)C[C@H](N(C)C)[C@H]2O)[C@](C)(OC)C[C@@H](C)C(=O)[C@H](C)[C@H]2N(CCCCn3cnc(-c4cccnc4)c3)C(=O)O[C@]12C | 11.9% |
| CC(=O)Nc1ccc(CC(=O)O)cc1 | -4.6% |
| CNCC[C@@H](Oc1ccccc1C)c1ccccc1 | 8.1% |
| CC[C@H](C)C(=O)O[C@H]1CCC=C2C=C[C@H](C)[C@H](CC[C@@H]3C[C@@H](O)CC(=O)O3)[C@H]21 | 20.4% |

Block 3 — observed: enzyme activity; action: inhibitor; concentration: 10 µM
Target: Calcium/calmodulin-dependent protein kinase type II subunit alpha (CAMK2A, Homo sapiens, UniProt Q9UQM7)
Chain of UniProt Q9UQM7 (whole entry, looked up): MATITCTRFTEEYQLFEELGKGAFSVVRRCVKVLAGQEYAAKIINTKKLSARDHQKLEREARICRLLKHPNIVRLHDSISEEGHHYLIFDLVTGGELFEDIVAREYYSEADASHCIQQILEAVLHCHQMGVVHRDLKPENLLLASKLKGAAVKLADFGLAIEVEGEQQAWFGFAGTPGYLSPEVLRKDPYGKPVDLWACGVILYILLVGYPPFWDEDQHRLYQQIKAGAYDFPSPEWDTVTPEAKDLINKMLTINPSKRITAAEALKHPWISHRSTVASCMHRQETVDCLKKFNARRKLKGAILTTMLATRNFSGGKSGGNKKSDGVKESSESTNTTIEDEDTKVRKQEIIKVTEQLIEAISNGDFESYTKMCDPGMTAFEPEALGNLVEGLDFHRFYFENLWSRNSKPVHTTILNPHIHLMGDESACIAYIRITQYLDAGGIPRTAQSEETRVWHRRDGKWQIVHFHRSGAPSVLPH
| SMILES | inhibition [%] |
| --- | --- |
| Cc1ccc(C(C)C)cc2c(C)ccc1-2 | 26 |
| CC(S)C(=O)NCC(=O)O (stereo not drawn) | 3 |
| CN(C)C(=O)Oc1cccc([N+](C)(C)C)c1 | -2 |
| CC[C@@H]1CN(C(=O)NCC(F)(F)F)C[C@@H]1c1cnc2cnc3[nH]ccc3n12 | 21 |
| C[C@H](CCC(=O)O)[C@H]1CC[C@H]2[C@@H]3[C@H](O)CC4=CC(=O)CC[C@]4(C)[C@H]3CC[C@]12C | 4 |
| O=C(O)Cc1ccc(O)c(O)c1 | -30 |
| CN(CCOc1ccc(NS(C)(=O)=O)cc1)CCc1ccc(NS(C)(=O)=O)cc1 | 2 |
| CC(C)[C@H](N)C(=O)N[C@@H](Cc1ccc(O)cc1)C(=O)O | -13 |
| CO/N=C(\C(=O)N[C@@H]1C(=O)N2C(C(=O)OC(C)OC(C)=O)=C(COC(N)=O)CS[C@H]12)c1ccco1 (stereo partly drawn) | -5 |

Block 4 — observed: cell-free assay; technique: competition with immobilised ligand; concentration: 1 µM
Compound: CN(C(=O)c1ccccc1)c1cc(N(C)c2ccc3c(c2)CCc2ccc(C(=O)NCCN4CCOCC4)cc2C3=O)ccc1F
| target | remaining binding [%] |
| --- | --- |
| EPHA8 (Homo sapiens, UniProt P29322) | 100 |
| TAOK3 (Homo sapiens, UniProt Q9H2K8) | 88 |
| Aurora kinase C (AURKC, Homo sapiens, UniProt Q9UQB9) | 95 |
| PIK3CA (Homo sapiens, UniProt P42336, Q546K) | 70 |
| BMPR2 (Homo sapiens, UniProt Q13873) | 100 |
| BMP2K (Homo sapiens, UniProt Q9NSY1) | 100 |
| MAP3K6 (Homo sapiens, UniProt O95382) | 77 |
| CDK13 (Homo sapiens, UniProt Q14004) | 100 |
| EGFR (Homo sapiens, UniProt P00533, T790M) | 87 |
| EPHA7 (Homo sapiens, UniProt Q15375) | 96 |
| CDK17 (Homo sapiens, UniProt Q00537) | 86 |
| WNK3 (Homo sapiens, UniProt Q9BYP7) | 99 |
| Non-receptor tyrosine-protein kinase TYK2, JH1 (TYK2, Homo sapiens, UniProt P29597) | 100 |
| PRKD3 (Homo sapiens, UniProt O94806) | 88 |
| ERN1 (Homo sapiens, UniProt O75460) | 86 |
| FLT3 (Homo sapiens, UniProt P36888, D835H) | 100 |
| Receptor-type tyrosine-protein kinase FLT3, autoinhibited (FLT3, Homo sapiens, UniProt P36888) | 90 |
| WEE1 (Homo sapiens, UniProt P30291) | 87 |
| EGFR (Homo sapiens, UniProt P00533, del746-750) | 100 |
| GSK3B (Homo sapiens, UniProt P49841) | 100 |
| DYRK1B (Homo sapiens, UniProt Q9Y463) | 100 |
| MET (Homo sapiens, UniProt P08581, M1250T) | 91 |
| MAP2K4 (Homo sapiens, UniProt P45985) | 100 |

Repeated from above (block 4):
| target | remaining binding [%] |
| --- | --- |
| EPHA7 (Homo sapiens, UniProt Q15375) | 96 |
| CDK17 (Homo sapiens, UniProt Q00537) | 86 |
| WNK3 (Homo sapiens, UniProt Q9BYP7) | 99 |
